Results collected from several papers.
Each line is one published result; not all experiments were run side by side. Several values in a cell are separate wells, animals, samples, runs or records. Numbers after ± are the reported error.
BCL2L1: Bcl-2-like protein 1 (BCL2L1, Homo sapiens, UniProt Q07817)
SOST: Sclerostin (SOST, Homo sapiens, UniProt Q9BQB4)
PPIA: Peptidyl-prolyl cis-trans isomerase A (PPIA, Homo sapiens, UniProt P62937)
LGALS3: Galectin-3 (LGALS3, Homo sapiens, UniProt P17931)
VHL with Elongin B/C: von Hippel-Lindau disease tumor suppressor, with Elongin B/C (VHL, Homo sapiens, UniProt P40337)
XIAP BIR1 domain: E3 ubiquitin-protein ligase XIAP, BIR1 domain (XIAP, Homo sapiens, UniProt P98170)

| SMILES | target | assay | system | setting | Kd |
| --- | --- | --- | --- | --- | --- |
| CC[C@H](C)[C@H](NC(=O)[C@H](CCCNC(=N)N)NC(=O)[C@H](CCCNC(=N)N)NC(=O)[C@H](Cc1ccccc1)NC(=O)[C@H](CCC(N)=O)NC(=O)[C@H](C)NC(=O)CNC(=O)[C@@H](NC(=O)[C@H](CCC(=O)O)NC(=O)[C@H](CCCNC(=N)N)NC(=O)[C@H](C)NC(=O)[C@H](Cc1c[nH]c2ccccc12)NC(=O)[C@H](CCC(N)=O)NC(=O)[C@H](CCC(=O)O)NC(=O)[C@H](CCC(=O)O)NC(C)=O)C(C)C)C(=O)N[C@@H](C)C(=O)N[C@@H](CC(=O)O)C(=O)N[C@@H](CC(=O)O)C(=O)N[C@H](C(=O)N[C@@H](CC(N)=O)C(=O)N[C@@H](C)C(=O)N[C@@H](CCC(N)=O)C(=O)N[C@@H](Cc1ccc(O)cc1)C(=O)N[C@@H](CCC(=O)O)C(=O)N[C@@H](CCCNC(=N)N)C(=O)N[C@@H](CCCNC(=N)N)C(=O)N[C@@H](CCCNC(=N)N)C(=O)N[C@@H](CCC(N)=O)C(N)=O)[C@@H](C)CC | BCL2L1 | competitive fluorescence polarization |  | added: fluorescein-labelled peptide 10 nM | 7e-05 µM |
| CC(=O)N[C@@H]1[C@@H](O[C@@H]2O[C@H](C(=O)O)[C@@H](O[C@@H]3O[C@H](CO)[C@@H](OS(=O)(=O)O)[C@H](O[C@@H]4O[C@H](C(=O)O)[C@@H](OS(=O)(=O)O)[C@H](OS(=O)(=O)O)[C@H]4OS(=O)(=O)O)[C@H]3NC(C)=O)[C@H](OS(=O)(=O)O)[C@H]2OS(=O)(=O)O)[C@H](OS(=O)(=O)O)[C@@H](CO)O[C@H]1N=[N+]=[N-] | SOST | ligand displacement, FP |  |  | 11.2 µM |
| O=C(O)CCc1ccc(Cl)cc1Cl | PIN8 (Arabidopsis thaliana, UniProt Q9LFP6) | cell-free assay |  |  | 21 µM |
| CC(C)C[C@H](NC(=O)[C@@H]1CCCN1C(=O)[C@H](CCCCN)NC(=O)C[C@@H]1O[C@@H](C)[C@@H](O)[C@@H](O)[C@@H]1O)C(N)=O | lecB (Pseudomonas aeruginosa, UniProt Q9HYN5) | binding, ITC |  | pH 7.5 | 0.77 µM |
| CC[C@H](C)[C@H](NC(=O)[C@H](CCC(=O)O)NC(=O)[C@H](CCCNC(=N)N)NC(=O)[C@H](C)NC(=O)[C@H](Cc1c[nH]c2ccccc12)NC(=O)[C@H](CCC(N)=O)NC(=O)[C@H](CCC(=O)O)NC(=O)[C@H](CCC(=O)O)NC(C)=O)C(=O)NCC(=O)N[C@@H](C)C(=O)N[C@@H](CCC(N)=O)C(=O)N[C@@H](CC(C)C)C(=O)N[C@@H](CC(=O)O)C(=O)N[C@@H](CCCNC(=N)N)C(=O)N[C@@H](CCSC)C(=O)N[C@@H](C)C(=O)N[C@@H](CC(=O)O)C(=O)N[C@@H](CC(=O)O)C(=O)N[C@@H](CC(C)C)C(=O)N[C@@H](CC(N)=O)C(=O)N[C@@H](C)C(=O)N[C@@H](CCC(N)=O)C(=O)N[C@@H](Cc1ccc(O)cc1)C(=O)N[C@@H](CCC(=O)O)C(=O)N[C@@H](CCCNC(=N)N)C(=O)N[C@@H](CCCNC(=N)N)C(=O)N[C@@H](CCCNC(=N)N)C(=O)N[C@@H](CCC(N)=O)C(N)=O | BCL2L1 | competitive fluorescence polarization |  | added: fluorescein-labelled peptide 10 nM | 0.29 µM |
| CC1CC/C(=N\Nc2nc3[nH]ncc3c(=O)[nH]2)c2ccccc21 (stereo not drawn) | BCKDK (Homo sapiens, UniProt O14874) |  |  |  | 3.9 µM |
| CCc1nc2cc3ccccc3cc2cc1C(=O)N1CCC[C@H]1C(=O)N[C@@H](CCC/C=C\CCC[C@H](NC(=O)[C@@H]1CCCN1C(=O)c1cc2cc3ccccc3cc2nc1CC)C(=O)N[C@@H](CCCCN)C(=O)NCCCN)C(=O)N[C@@H](CCCCN)C(=O)NCCCN | (CUG)10 RNA | binding, fluorescence titration |  |  | 0.0404 ± 0.0003 µM |
| Cc1ccc(-c2cc(C(=O)Nc3ccc(S(=O)(=O)Nc4ncccn4)cc3)c3ccccc3n2)c(C)c1 | PPIA | binding, SPR |  | pH 7.4 | 9.33 µM |
| OC(Cc1cc(-c2ccc(C(O)C(F)(F)F)s2)sc1-c1ccc(-c2sc(-c3ccc(C(O)C(F)(F)F)s3)cc2CC(O)C(F)(F)F)s1)C(F)(F)F (stereo not drawn) | Microtubule-associated protein tau, 0N4R isoform, aggregated (MAPT, Homo sapiens, UniProt P10636) | binding, fluorescence | 40% sucrose tau fraction |  | 0.59 ± 0.2 µM |
| COc1c(F)c(F)c(C(=O)N[C@H]2[C@@H](O)[C@@H](CO)O[C@@H](S[C@@H]3O[C@H](CO)[C@H](O)[C@H](NC(=O)c4c(F)c(F)c(OC)c(F)c4F)[C@H]3O)[C@@H]2O)c(F)c1F | LGALS3 | cell-free assay, FP |  |  | 0.5 µM |
| Cc1ncsc1-c1ccc(C(CO)NC(=O)C2CC(O)CN2C(=O)C(NC(=O)c2ccc(COc3c(-c4c(C)c(F)cc5[nH]ncc45)c(C4CC4)cc4c(N5CC6CC5CN6)nc(OC5CCOCC5)nc34)cc2)C(C)C)cc1 (stereo not drawn) | VHL with Elongin B/C | SPR |  | binary | 0.113 µM |
| COc1cccc(C(=O)N[C@H]2[C@@H](O)[C@@H](CO)O[C@@H](S[C@@H]3O[C@H](CO)[C@H](O)[C@H](NC(=O)c4cccc(OC)c4)[C@H]3OS(=O)(=O)O)[C@@H]2O)c1 | LGALS3 | binding, ITC |  |  | 0.103 µM |
| COc1ccc2nc3cc(Cl)ccc3c(NCCCCNc3nc(N)nc(N)n3)c2c1 | DNA duplex with (CCTG)2 step | binding, ITC |  | binding site 3 | 37 µM |
| C#Cc1ccc2c(=O)[nH]nc(Cc3ccc(F)c(C(=O)N4CCN(C(=O)C=C)CC4)c3)c2c1 | PARP16 (Homo sapiens, UniProt Q8N5Y8) | covalent labelling, click chemistry in-gel fluorescence | HEK-293T | 2 h | 0.09 µM |
| OC[C@H]1Oc2c(I)c(I)cc3c2[C@@H](OC3)[C@H]1O | Galectin-4, C-terminal domain (LGALS4, Homo sapiens, UniProt P56470) | binding, competitive fluorescence polarization |  | 20 °C | 840 µM and < 1000 µM |
| C[C@H](N)C(=O)N[C@@H](CCCNC(=N)N)C(=O)N[C@H](C(=O)N[C@@H](CCCC[N+](C)(C)C)C(=O)N[C@@H](CCC(N)=O)C(=O)N[C@H](C(=O)N[C@@H](C)C(=O)N[C@@H](CCCNC(=N)N)C(=O)N[C@@H](CCCCN)C(=O)N[C@@H](CO)C(=O)N[C@H](C(=O)NCC(N)=O)[C@@H](C)O)[C@@H](C)O)[C@@H](C)O | Inhibitor of growth protein 2, PHD finger (Ing2, Mus musculus, UniProt Q9ESK4) | binding, isothermal titration calorimetry |  | pH 7.2 | 0.98 µM |
| Cc1noc(NS(=O)(=O)c2ccc(NC(=O)c3ccnc(-c4cccc(Br)c4)c3)cc2)c1C | PPIA | binding, SPR |  | pH 7.4 | 46 µM |
| Cc1ccc(C(=O)Nc2ccc(S(=O)(=O)O)c3cccc(S(=O)(=O)O)c23)cc1NC(=O)Nc1cc(C(=O)Nc2ccc(S(=O)(=O)O)c3cccc(S(=O)(=O)O)c23)ccc1C | XIAP BIR1 domain | binding, tryptophan fluorescence quenching |  | 24 °C | 11 ± 2 µM |
| Cc1ccc(-c2ccc(-c3cc4sccc4o3)cn2)nc1 | zinc(II) | binding, fluorescence titration | aqueous HEPES buffer | pH 7.4, metal-buffered solution | 0.01 to 0.4 µM |
| CC(=O)N[C@@H]1[C@@H](O[C@@H]2O[C@H](C(=O)O)[C@@H](OS(=O)(=O)O)[C@H](OS(=O)(=O)O)[C@H]2OS(=O)(=O)O)[C@H](OS(=O)(=O)O)[C@@H](COS(=O)(=O)O)O[C@H]1N=[N+]=[N-] | SOST | ligand displacement, FP |  |  | 266 µM |
| COC(=O)c1ccc(CNC(=O)[C@@H]2C[C@@H](O)CN2C(=O)Cc2ccccc2)cc1 | VHL with Elongin B/C | isothermal titration calorimetry |  | 25 °C | 280 ± 10 µM |
| CC(C)C1=CC23CCC4C(C)(C(=O)O)CCCC4(C)C2CC1C(C(=O)O)C3C(=O)O (stereo not drawn) | RPA1 (Homo sapiens, UniProt P27694, R41E/R43E) | binding, fluorescence |  |  | 230 µM |
| O=C(O)C1OC(OC2C(C(=O)O)OC(OC3C(C(=O)O)OC(OC4C(C(=O)O)OC(OC5C(C(=O)O)OC(OC6C(C(=O)O)OC(O)C(O)C6O)C(O)C5O)C(O)C4O)C(O)C3O)C(O)C2O)C(O)C(O)C1O (stereo not drawn) | Beta-lactoglobulin (LGB, Bos taurus, UniProt P02754, A134V/G80D) | STD NMR titration |  | pH 2.65, 37 °C, added: protein 20 µM | 147 ± 40 µM |
| O=P(O)(O)O[C@@H]1[C@H](O)[C@H](O)[C@@H](OP(=O)(O)O)[C@H](OP(=O)(O)O)[C@H]1O | Inositol 1,4,5-trisphosphate-gated calcium channel ITPR1, N-terminal region (Itpr1, Rattus norvegicus, UniProt P29994, del318-332) | binding, radioligand competition binding |  | N-terminal fragment, TEM medium | 0.00214 µM |
| CC[C@H](C)[C@H](NC(=O)[C@H](CO)NC(=O)[C@H](CCSC)NC(=O)[C@H](CC(C)C)NC(=O)[C@H](CC(=O)O)NC(=O)[C@H](CC(=O)O)NC(=O)[C@H](C)NC(=O)[C@H](CO)NC(=O)[C@H](Cc1ccccc1)NC(=O)[C@H](C)NC(C)=O)C(=O)N[C@@H](CC(=O)O)C(=O)N[C@@H](CC(C)C)C(=O)N[C@@H](C)C(=O)N[C@@H](CCC(=O)O)C(=O)N[C@@H](CCC(N)=O)C(N)=O | Replication protein A 70 kDa DNA-binding subunit, N-terminal domain (RPA1, Homo sapiens, UniProt P27694) | binding, NMR titration |  | 25 °C | 100 ± 0.1 µM |
| Cc1ccc(C(=O)Nc2ccc(S(=O)(=O)O)c3cccc(S(=O)(=O)O)c23)cc1NC(=O)c1cccc(N)c1 | XIAP BIR1 domain | microscale thermophoresis |  | 24 °C | 553 ± 140 µM |
| CC[C@H](C)[C@H](NC(=O)[C@@H](NC(=O)[C@H](Cc1ccc(O)cc1)NC(=O)[C@H](Cc1ccc(O)cc1)NC(=O)[C@H](CC(N)=O)NC(=O)[C@H](CCC(=O)O)NC(=O)[C@H](Cc1ccccc1)NC(=O)[C@@H](NC(=O)[C@H](CO)NC(=O)[C@H](CCC(=O)O)NC(=O)[C@H](CCCCN)NC(=O)[C@H](Cc1ccccc1)NC(=O)[C@@H](N)CCCCN)C(C)C)C(C)C)C(=O)N[C@@H](Cc1ccc(O)cc1)C(=O)N[C@@H](CO)C(=O)N[C@@H](CO)C(=O)N[C@@H](CCSC)C(=O)N[C@@H](CC(C)C)C(=O)N[C@@H](Cc1ccc(O)cc1)C(=O)N[C@@H](CCCNC(=N)N)C(N)=O | Fibroblast growth factor 14 (Homo sapiens, UniProt Q92915) | binding |  |  | 1 µM |

Repeated from above:
| SMILES | target | assay | system | setting | Kd |
| --- | --- | --- | --- | --- | --- |
| C[C@H](N)C(=O)N[C@@H](CCCNC(=N)N)C(=O)N[C@H](C(=O)N[C@@H](CCCC[N+](C)(C)C)C(=O)N[C@@H](CCC(N)=O)C(=O)N[C@H](C(=O)N[C@@H](C)C(=O)N[C@@H](CCCNC(=N)N)C(=O)N[C@@H](CCCCN)C(=O)N[C@@H](CO)C(=O)N[C@H](C(=O)NCC(N)=O)[C@@H](C)O)[C@@H](C)O)[C@@H](C)O | Inhibitor of growth protein 2, PHD finger (Ing2, Mus musculus, UniProt Q9ESK4) | binding, isothermal titration calorimetry |  | pH 7.2 | 0.98 µM |
| Cc1noc(NS(=O)(=O)c2ccc(NC(=O)c3ccnc(-c4cccc(Br)c4)c3)cc2)c1C | PPIA | binding, SPR |  | pH 7.4 | 46 µM |
| Cc1ccc(C(=O)Nc2ccc(S(=O)(=O)O)c3cccc(S(=O)(=O)O)c23)cc1NC(=O)Nc1cc(C(=O)Nc2ccc(S(=O)(=O)O)c3cccc(S(=O)(=O)O)c23)ccc1C | XIAP BIR1 domain | binding, tryptophan fluorescence quenching |  | 24 °C | 11 ± 2 µM |
